# Measured values of several laboratories.
# Parts stem from different laboratories: compare values within a part only.

# Series 1
# Target: Interferon regulatory factor 5, full length, phosphomimetic (IRF5, Homo sapiens, UniProt Q13568-2, residues 1-514, S451D/S453D/S456D/S462D)
# Technique: protein-binding microarray
# Molecule type: double-stranded DNA, one strand shown
# Medium: in vitro
# Tested at: 940 nM top
# Notes: 60-bp whole probe
# Added: salmon DNA 0.4 mg/ml
# Relative to: random background probes
# Reading: higher = stronger binding
# All sequences stand within: GCCTAGCAC … GTCTTGATTCGCTTGACGCTGCTG
Sequence,fitted relative affinity
TCATGTTCCCTCATCAGACTGTGCTAG,0.823 z-score
GACGGTCTCCTACTGCTTACGTGCTAG,0.104 z-score
TTAGGTTCCCTTTTTCTTTAGTGCTAG,1.27 z-score
TCATGGTTCTGCTTCTTACTGTGCTAG,0.613 z-score
TCAAGTCTCAATATTAGACTGTGCTAG,1.51 z-score
GCCGATTCCAGTTTCGAGACGTGCTAG,4.92 z-score
GACGGTATCCTTCTCCTGCCGTGCTAG,0.515 z-score
CACGGACTGGACTATCGGGACGTGCTA,-0.209 z-score
GACGGTATCGGTTTCGGCACGTGCTAG,9.91 z-score
GGGTTCAAGAAGTAGGAGAAGTGCTAG,-0.375 z-score
TTAGGTATCCTTATCCTGTAGTGCTAG,0.421 z-score
ATGTGTTTAAGAATGTTTTTGTGCTAG,-0.123 z-score
TTAGGTCTCCTCCTCCTTTAGTGCTAG,0.376 z-score
GCCGGACTGGGTATCGGGACGTGCTAG,0.941 z-score
TTAGGACTAGGTTTCGGTTAGTGCTAG,7.38 z-score
GACGAACTGAGTATCGAAACGTGCTAG,2.69 z-score
CCTTATTTAAGACCTATGCACGTGCTA,0.84 z-score
TTAGAACTGAGTTTGGATTAGTGCTAG,-0.309 z-score

# Series 2
# Target: RNA binding protein fox-1 homolog 2, RRM domain, GST-SBP tag (RBFOX2, Homo sapiens, UniProt O43251-10, residues 100-194)
# Technique: RNA Bind-n-Seq
# Molecule type: RNA
# Medium: in vitro
# Tested at: 365 nM
# Notes: natural RNA segment, single round, ends assumed
# Relative to: no-protein control
# Reading: higher = stronger binding
# All sequences stand within: GGGAGUUCUACAGUCCGACGAUC … UGGAAUUCUCGGGUGCCAA
# Residues (chain): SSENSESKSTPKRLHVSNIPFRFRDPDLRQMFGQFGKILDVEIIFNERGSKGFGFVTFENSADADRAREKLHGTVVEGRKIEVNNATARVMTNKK
Sequence,RBNS enrichment (R)
AACAGUAACAGCCCACGGCAGUGUGACCUUCUAAACUUCAGCGAAGUCACUGGUGGCUUUAAAUAACCCAGCGUUGUUCCUCCACACGGCUUUGGUACUCUCUACCUCUU,0.383
CUCUGAAUCUCCCGACCUUGGUCCCCUGCCCAAGAGAGGGUAAGGAGGCUGGUGGGGGAUACGGUGGGUCCUUGGAGCAGGAGUGACAAAGGAGGAAAAGACCAAAAAUC,0.361
CAGGAGCACAAGGAUGUGAUGUGAGGCAGGACCCACCUGGUGGCCUCUGCCCCGUCUCAUGAGGGGCCCGAGCAGAAGCAGGAUAGUUGCUCCGCCUCUGCUGGCACAUU,0.556
AGGCAGUUUAGGUCAAGAGCUGAGCCAAGGUGCUUGAGGAAGGCUUUGCUACAGGAGUGUAGAGACAGACAGCCCCAAGAGCUGUCAGCAUUGGAAGCCAGACUUGAUUC,0.424
CUGAAAGAAUCCAGAGGUUGGAGUGCCAAUAGAAAAUGAAAACAAAUGCCUUGUACUACAGGCAGCCUCUGAAGGUGACCACAUAACUGUCUUCACUGUGACCAAUCGGA,0.557
CCCAGGGCCUCUGGGACACUUGCCUUGACUUGCAACUUGCCUUGAACAUCACGAUCAAAGCAGCAGGUGCUGUGGUCUCUCAAAAUUGAUUUUUAUUUGACUCUGUGGCU,0.767
UGCUCCGGUUUUUUCAUACGACUUAGUAUGGGGCAAAAAAGCAAUGUGAAGAAUCAACUCUAGGGUUACCUGUGAAGCCACGCGGUGGUGUUCGAAGCUGUCUGGUAAUG,0.31
GGAACGCAUCCCACCUUGCCAAAGCACUCAUACCAGUCGACUGUGCUCACUAGCAGGACACUGAAGGGUGUCCUUCAUCAUUAAGGCAGUGUGAUGUCAUGUUUGGUCAU,0.364

# Series 3
# Target: Transcription factor Sp1 (SP1, Homo sapiens, UniProt P08047, residues 1-785, full length assumed)
# Chain of UniProt P08047 (whole entry, looked up): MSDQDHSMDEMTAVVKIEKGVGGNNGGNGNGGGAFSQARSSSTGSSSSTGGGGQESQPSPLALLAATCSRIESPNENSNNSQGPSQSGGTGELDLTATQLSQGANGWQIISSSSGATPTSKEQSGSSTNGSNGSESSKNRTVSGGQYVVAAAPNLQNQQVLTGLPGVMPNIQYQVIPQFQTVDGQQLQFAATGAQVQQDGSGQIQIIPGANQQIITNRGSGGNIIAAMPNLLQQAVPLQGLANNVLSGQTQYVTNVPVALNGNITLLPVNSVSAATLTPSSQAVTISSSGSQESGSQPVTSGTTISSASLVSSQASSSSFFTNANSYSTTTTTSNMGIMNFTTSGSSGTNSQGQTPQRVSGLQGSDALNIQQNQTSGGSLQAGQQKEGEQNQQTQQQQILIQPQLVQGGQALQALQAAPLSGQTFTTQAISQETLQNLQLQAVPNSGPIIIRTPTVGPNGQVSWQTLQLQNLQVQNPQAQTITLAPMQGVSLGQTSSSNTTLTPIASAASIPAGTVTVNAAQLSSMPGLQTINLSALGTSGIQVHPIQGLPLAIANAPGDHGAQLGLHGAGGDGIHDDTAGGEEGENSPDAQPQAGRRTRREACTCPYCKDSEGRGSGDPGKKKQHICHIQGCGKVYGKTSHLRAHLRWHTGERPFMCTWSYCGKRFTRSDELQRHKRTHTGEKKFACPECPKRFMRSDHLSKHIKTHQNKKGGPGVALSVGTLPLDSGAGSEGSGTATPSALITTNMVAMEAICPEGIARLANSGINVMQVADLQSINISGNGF
# Technique: protein-binding microarray
# Molecule type: double-stranded DNA, one strand shown
# Medium: in vitro
# Tested at: not given
# Notes: k-mer, scored over probes, only values ≥0.25
# Reading: higher = stronger binding
Sequence,E-score
ACATCATA,0.305
CCGCCCTC,0.442
AATGGTAA,0.276
ACACCCAC,0.299
AGGGCGGG,0.483
CAATACAA,0.302
GTCATCCA,0.28
AGATGGGG,0.299
ACATATCC,0.251
CAAGGGGA,0.295
GTGTGGGA,0.325
ATTACGTA,0.259
CATACATG,0.305
AGCCCCTC,0.32
ATACCCCA,0.274
GGGGTCTA,0.251

# Series 4
# Target: Prothrombin, mature alpha-thrombin (F2, Homo sapiens, UniProt P00734)
# Technique: aptamer microarray, sandwich
# Molecule type: DNA with 2'F-ANA
# Medium: in vitro
# Tested at: 200 nM
# Notes: whole 15-mer aptamer, many near background
# Added: Cy3 exosite-II aptamer, 400 nM
# Reading: higher = stronger binding
# Sequence: GGTTGGTGTGGTTGG
Modification,mean fluorescence intensity [a.u.]
2'F-ANA at 2 3 4 6 7 8 9 10 12 14 15,160
2'F-ANA at 1 3 9 10 14,58.8
2'F-ANA at 1 2 3 5 6 10 12 14 15,46.8
2'F-ANA at 1 2 6 7 8 10 11 13 14,54.1
2'F-ANA at 1 2 6 9 10 11 12,61.1
2'F-ANA at 1 2 4 5 6 7 9 10 12 13 14 15,62.4
2'F-ANA at 1 3 5 6 7 8 11 15,61.4
2'F-ANA at 1 2 4 5 7 10 11 12 13 14 15,47.2
2'F-ANA at 1 4 5 6 7 8 9 11 13 14,48.6
2'F-ANA at 1 2 3 4 8 9 10 11 12 13 14 15,51.1
2'F-ANA at 1 2 3 4 6 7 9 10 11,58.8
2'F-ANA at 2 3 4 6 7 9 11 13 15,320
2'F-ANA at 1 2 4 5 7 8 9 10 11 14 15,145
2'F-ANA at 1 5 7 9 10 11 15,47.1
2'F-ANA at 1 8 9 11 15,173
2'F-ANA at 1 2 4 5 6 7 8 13,50
2'F-ANA at 1 2 5 6 14 15,47
2'F-ANA at 1 3 5 6 8 9 12 13 14,99.2
2'F-ANA at 1 4 8 10 11 14,48.4
2'F-ANA at 1 3 4 6 7 9 10 11 13,88.3
2'F-ANA at 2 3 5 6 7 8 9 10 11 14 15,52.1

# Repeated from above (series 3):
Sequence,E-score
AATGGTAA,0.276
ACACCCAC,0.299
AGGGCGGG,0.483
CAATACAA,0.302
GTCATCCA,0.28
AGATGGGG,0.299
ACATATCC,0.251
CAAGGGGA,0.295
